Assay results pooled from the literature.
A part holds a random share of what one study measured. Substitutions count along the parent as printed.

Study 1
Target: Centromere-binding protein 1, full length, His-tagged (CBF1, Saccharomyces cerevisiae, UniProt P17106, residues 1-351)
UniProt P17106, sequence (whole entry, looked up): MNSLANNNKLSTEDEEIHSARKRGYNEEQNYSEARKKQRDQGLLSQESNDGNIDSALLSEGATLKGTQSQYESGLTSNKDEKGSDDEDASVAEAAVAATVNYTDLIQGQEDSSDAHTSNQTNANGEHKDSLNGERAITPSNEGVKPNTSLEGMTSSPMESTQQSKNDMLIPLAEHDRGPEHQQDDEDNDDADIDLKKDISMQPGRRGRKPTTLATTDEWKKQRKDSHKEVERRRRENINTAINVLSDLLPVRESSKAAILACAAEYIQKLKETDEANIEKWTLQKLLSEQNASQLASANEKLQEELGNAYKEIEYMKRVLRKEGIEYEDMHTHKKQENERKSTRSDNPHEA
Technique: competition protein-binding microarray
Form: double-stranded DNA, one strand shown
Matrix: in vitro
Tested at: 2 µM
Setting: whole 60-bp probe, lowest competitor level
With: Pho4 competitor, 0.05 µM
Direction: higher = stronger binding
All sequences stand within: … GTCTTGATTCGCTTGACGCTGCTG
Oligonucleotide | fluorescence intensity
TGCGCAACAACTTGACTGGTGGGTGTATGTCTAGAA | 50.2 a.u.
CATATCAGTGGTAGCAACGTGGTCGCACTGAAGAAT | 102 a.u.
GCCCGATCCTTTGGACACGTGCCGACAGGACTACTC | 2050 a.u.
AAATTACTAAGTTGCAGGGTGGGTGACGCCGTATGA | 64.3 a.u.
ACGGGAATATGGTCTTCTGCGATAGCTAGTAGAGAA | 64.2 a.u.
GATAATGACACACAGCACGCAAGTACAAGTGTCAAT | 66.3 a.u.
CATACCCAACCTTGCAGCGTGGGTGAAGATATTTGT | 74.8 a.u.
TGAATTACTTCGCCCAACGTGTTGATGGCATGGGCA | 77.9 a.u.
CTTTCCCGATCTTGTCACACGACTTTAGCACATTTG | 128 a.u.
TGGAACAGCAATGCCACCGTGATGGTCCTTGACCAG | 57.4 a.u.
CTAACGAAGGTTTTTCACGTGGCTTACAAGCCAAGT | 938 a.u.
GCCTCTGTACAATGCCACGTTGATACGCCCAGCAGC | 101 a.u.
TAAATCGAAACCACCATCGTGTCCTTCCTTGGGAAC | 71.6 a.u.
AAAGCGGTAATTTGTCACAAGACTTCACATATCTAT | 156 a.u.
CCGCTCCCGGCTTGCCACGTGACAAGCCACAGTGTT | 5050 a.u.
CTAACGAAGGTTTGGCACGTGGGTGACAAGCCAAGT | 1120 a.u.
CTTCTGTAAATTTGTTCCGTGGGTGGACGCGCCCCG | 73.6 a.u.
AAAGCGGTAATTTGAGCTGTGGGTGCAGATATCTAT | 85.2 a.u.
CGTCCTAGTGATTTTCACGTGGAGTCCATGAGGAAG | 472 a.u.
CTAACGAAGGTTTTTCACGTGCCATACAAGCCAAGT | 1110 a.u.
AAGCACTGCGGTAGGTGCATGACAGGAGGCCCCTAG | 59.6 a.u.
CATACCCAACCTTAACACGTGTTTTAAGATATTTGT | 1930 a.u.
AAATTACTAAGTTGATTAGTGGGTGACGCCGTATGA | 79 a.u.
CTTTCCCGATCTTGGGTCGTGGGTGTAGCACATTTG | 63.6 a.u.
CTTTCCCGATCTTGATCTGTGGGTGTAGCACATTTG | 58.5 a.u.

Study 2
Target: Interferon regulatory factor 7, full length, phosphomimetic (IRF7, Homo sapiens, UniProt Q92985, residues 1-503, S471D/S472D/S475D/S476D/S477D/S483D/S484D/S487D)
Technique: protein-binding microarray
Form: double-stranded DNA, one strand shown
Matrix: in vitro
Tested at: 2200 nM top
Setting: 60-bp whole probe
With: salmon DNA 0.4 mg/ml
Baseline: random background probes
Direction: higher = stronger binding
All sequences stand within: GCCTAGCAC … GTCTTGATTCGCTTGACGCTGCTG
Residues (chain): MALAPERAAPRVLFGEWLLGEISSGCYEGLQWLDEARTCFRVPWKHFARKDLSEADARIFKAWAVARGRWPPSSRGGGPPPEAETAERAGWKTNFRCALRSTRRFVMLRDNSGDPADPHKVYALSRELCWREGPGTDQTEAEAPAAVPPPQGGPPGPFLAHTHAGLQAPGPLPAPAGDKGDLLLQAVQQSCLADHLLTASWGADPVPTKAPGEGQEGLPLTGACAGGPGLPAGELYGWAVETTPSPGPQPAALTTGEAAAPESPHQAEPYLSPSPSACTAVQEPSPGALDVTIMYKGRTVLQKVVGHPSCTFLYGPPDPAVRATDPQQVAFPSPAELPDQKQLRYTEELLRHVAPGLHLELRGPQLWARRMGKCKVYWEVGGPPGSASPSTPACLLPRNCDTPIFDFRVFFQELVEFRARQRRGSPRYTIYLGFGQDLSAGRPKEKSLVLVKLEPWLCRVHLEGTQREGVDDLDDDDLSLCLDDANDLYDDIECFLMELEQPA
Oligonucleotide | fitted relative affinity [z-score]
GACGGTCTCGGGCTCGGGACGTGCTAG | -0.636
GACGATATCAGTTTCGAGAAGTGCTAG | 1.79
TCATTTCCCTATTATATAACTGTGCTA | 3.2
GACGGTGTCGGACTGGGGACGTGCTAG | -0.756
GACGGACTGGACTATCGTGACGTGCTA | -0.267
TTAGGTCTCGGAATGGGTTAGTGCTAG | 0.155
GACGGTATCCTTCTCCTGACGTGCTAG | 1.22
TTAGAATTGGGGTATCGATTAGTGCTA | 0.0596
TCAATTCTTTTTATGCTACTGTGCTAG | 1.1
GACGATATCAGACCGGAGACGTGCTAG | 0.199
TTAGGTATCCTTAACCTTTAGTGCTAG | 0.377
TTAGGTCTCCTTTTCCTTTGGTGCTAG | 2.16
TTAGATATCAGTATTGATTAGTGCTAG | -0.0269
TTAGGAATCGACTATCGGTTAGTGCTA | -0.159
GACGATTTCGGGCATCGAGACGTGCTA | 0.866
TTAGGTATCGGTCTCTGTTAGTGCTAG | 1.08
GACGATATGAGTTTCGAGACGTGCTAG | 2.03
GACGCTTTCGGTTTCGGGACGTGCTAG | 15.3
GACGGTTTCGGTATCGAGACGTGCTAG | 6.37
TTAGGTTTCAGGACTGGGTTAGTGCTA | 0.618
GACGATTCCCGTTTCGAGACGTGCTAG | 3.09
TTAGGTATCCTTCTCCATTAGTGCTAG | 1.04
TCATGTCTGTTTTTGCTACTGTGCTAG | 1.71
GACGATTCCAGTTTCGACACGTGCTAG | 3.62
GGGTGGGAGCCGAAGACGCCGTGCTAG | -1.33

Study 3
Target: RNA binding protein fox-1 homolog 2, RRM domain, GST-SBP tag (RBFOX2, Homo sapiens, UniProt O43251-10, residues 100-194)
Technique: RNA Bind-n-Seq
Form: RNA
Matrix: in vitro
Tested at: 365 nM
Setting: natural RNA segment, single round, ends assumed
Baseline: no-protein control
Direction: higher = stronger binding
All sequences stand within: GGGAGUUCUACAGUCCGACGAUC … UGGAAUUCUCGGGUGCCAA
Residues (chain): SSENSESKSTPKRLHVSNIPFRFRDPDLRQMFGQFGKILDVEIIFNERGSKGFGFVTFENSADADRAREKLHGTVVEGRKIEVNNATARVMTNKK
Oligonucleotide | RBNS enrichment (R)
GAACAUUUGAAAUCCAUUUUGAUAAACCUGCUGUUAAUGUUUUUUCCCCCCUUGUGAAUGUUUUCUAACUUUGUCUUGGUAAUUGCAAUUUAACUAGGUGCGGUGGCUAC | 0.912
GGGGUACCUGGUCCCCAUUUCCUACUCCUCUUUUAACAAAAGAGAAAAGAAUUCCAAACCACCACCAGCUCUGUAGUCUUGCCUCAUAUAUCCUGGGUGUUGCUGGCUGG | 0.614
GGCUACUGAUGGCUGAGUUCCACGGGGAGAGCCUGGUUUGGGCACAGGAGGCCACCGCCGAAGGCCACCUUACCUUCCUCCUUGCUGGCCCAGUUGUUGUUUAUUUAUGC | 0.489
CCAAGAUCUAAUUUUAAAAAUGUACGAGGACUUUGUGCUGAAAAUACAGAGUAUUUUUUUAAAGUAAGGCUGUCUUGGCUUAAAAGCAGAUUACAGAAAUGUAAGCCAGC | 0.56
UUACCAGUGGUCGAUGGCCUGGUCAGUCCUGUGCCGGGUGACUUAGGACCAGGCACGUCAGCUCUCUGAGCCUCCCCUUCCCUUGUUGUCACAAGGGAAUAGAAGCAGAA | 0.479
AGUAGUACACACCUGUAGUCCAAGCUACUUGGGAGGCUGAAGUGGGAGGAUCAUUUGUGCCCAGGUUGAGGCUAUAGUGAGCCAUGAUCAUACCACUGCACUCCAGCCUG | 0.419
ACCAUUCGGUGUAAACAUUUGUGUUUAUAAGAUUUACUUUGUUUUUAUUUUUCUACUUGGAACUGUACACAUUUGAAAAGUACCCAAAUAAACCAGAAGCUUUAUCGUUG | 0.312
CCACUCAACUACCUCACCCACCUGCUCUGGCUCAAGGCUGAUGGCAAUCGGCUGCGAAGUGCCCAGAUGAAUGAACUGCCCUACCUGCAGAUUGCUAGUUUUGCUUAUAA | 5.49
UUAAUUCUACUUAACAUUUACUUCUUAAGCUGACAACUAGAUUCAGAAAUACAAGAAAAAUAGACUAUGUCAGGUCCUCAAGUUAUGAGUUAGGACCAACGACUAUUAAC | 0.516
GCAGGCACUCUGCAGAGGAUGGAAGAGGAGACCCCUGUUCUGGGCUUAUUUAUUAAUCUUGAUUUAAUACGUUCUCUUCCCAAGCUGGAAGAUCCUCUUUCCAGGCCUCU | 0.876
CAGCUGCAUGUGAUUUUGUGAUAAAGUUCAGGUAACAGGAUGGGCAGUGAUGGAGAAUCACUGUUGAUUGAGAUUUUGGUUUCCAUGUGAUUUGUUUUCUUCAAUAGUCU | 1.97
CGCCCUGUGGUGCCCACCUCCAACCCUCCAGUCUCCUGGUGUUCAUCUGGGCAUGUCUGCACAAGCAAUGCAACGCUGGGCCACUGCUGCCCGUCUGCCUCCCCGGCACG | 1.18

Study 4
Target: CCNE1, cyclin fold, Cln2 fusion (human)
Technique: yeast growth competition, sequencing
Matrix: yeast
Setting: weak parent motif
Baseline: not given
Direction: higher = stronger binding
Parent: CENPC docking peptide (human); VKTKKRLNFDDKV
Change | normalised enrichment score
V13A | -0.49
F9L | -0.0585
N8A | 0.909
K5A L7A | 0.0583
D11A | 0.491
R6A | 0.772
L7A | 0.325
K5R F9L | 0.469
K2A | 0.653
F9A | 0.376

Study 5
Target: ABI1, truncated, D143A, DHFR fusion (Arabidopsis thaliana)
Technique: DHFR PCA, deep sequencing
Matrix: yeast
Setting: methotrexate growth selection, single substitutions
With: (+)-ABA 0 µM
Baseline: wild-type fitted maximum
Direction: higher = stronger binding
Parent: PYL1, truncated, DHFR fusion (Arabidopsis thaliana); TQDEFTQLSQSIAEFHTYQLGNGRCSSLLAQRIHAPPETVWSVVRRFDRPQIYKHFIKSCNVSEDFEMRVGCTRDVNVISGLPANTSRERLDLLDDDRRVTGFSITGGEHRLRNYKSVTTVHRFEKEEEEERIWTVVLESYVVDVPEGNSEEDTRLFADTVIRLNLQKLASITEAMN
Change | relative binding score [%]
C60H | 3.93
V136S | -4.71
F47I | -0.473
E130N | 25.8
W134K | 5.67
L91S | 1.19
S11A | 42.4
L93K | -0.961
L8T | -0.401
H122K | -5.12
L91C | 4.48
E139R | 5.81
S150D | 14.2
K116M | 0.957

Study 6
Target: Histone acetyltransferase KAT6A, both winged helices, GST fusion (KAT6A, Homo sapiens, UniProt Q92794, residues 1-181)
Technique: protein binding microarray
Form: double-stranded DNA, one strand shown
Matrix: in vitro
Tested at: not given
Setting: 8-mer, flanks averaged, mean of 2 arrays, mostly near background
Baseline: not given
Direction: higher = stronger binding
Target sequence (chain): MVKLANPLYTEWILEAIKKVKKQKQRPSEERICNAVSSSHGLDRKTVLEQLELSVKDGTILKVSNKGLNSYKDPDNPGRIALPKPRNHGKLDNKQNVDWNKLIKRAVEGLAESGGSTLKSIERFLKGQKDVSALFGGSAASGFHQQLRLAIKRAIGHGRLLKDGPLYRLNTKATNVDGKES
Oligonucleotide | E-score
AAATCGCA | 0.00513
CCCCAACG | -0.0378
GACTTAAA | -0.0226
AATTATTA | 0.0472
ACGTAGCT | -0.0623
ATCGATAC | -0.00532
CAACGTAC | -0.0402
AGGATAAA | -0.169
AGACAGCG | 0.217
ATACACGC | 0.196
CCATTTGC | -0.131
CTGACAAG | -0.0409
CCTTTCCA | -0.0456
CGAAGTAA | -0.0737
ACCAACGA | -0.152
AGCGTCAC | 0.0819

Mixed results
Molecule | target | assay | test system | conditions | how to read | endpoint | result
PhoQ, residues 284 288 289 292 302 303 GANMMA | PhoP, residues 12 14 15 18 19 LYHSL (Escherichia coli, UniProt P23836) | Sort-seq, refers to: YFP reporter | E. coli | PhoQ-PhoP variant library, with: 10 µM Mg2+ | baseline: high Mg2+ state, higher = stronger signaling | fold induction | 36.1
